# Results of several laboratories.
# The chains behind the UniProt entries cited, without tags or fusion partners.
# UniProt Q00959, whole entry, looked up: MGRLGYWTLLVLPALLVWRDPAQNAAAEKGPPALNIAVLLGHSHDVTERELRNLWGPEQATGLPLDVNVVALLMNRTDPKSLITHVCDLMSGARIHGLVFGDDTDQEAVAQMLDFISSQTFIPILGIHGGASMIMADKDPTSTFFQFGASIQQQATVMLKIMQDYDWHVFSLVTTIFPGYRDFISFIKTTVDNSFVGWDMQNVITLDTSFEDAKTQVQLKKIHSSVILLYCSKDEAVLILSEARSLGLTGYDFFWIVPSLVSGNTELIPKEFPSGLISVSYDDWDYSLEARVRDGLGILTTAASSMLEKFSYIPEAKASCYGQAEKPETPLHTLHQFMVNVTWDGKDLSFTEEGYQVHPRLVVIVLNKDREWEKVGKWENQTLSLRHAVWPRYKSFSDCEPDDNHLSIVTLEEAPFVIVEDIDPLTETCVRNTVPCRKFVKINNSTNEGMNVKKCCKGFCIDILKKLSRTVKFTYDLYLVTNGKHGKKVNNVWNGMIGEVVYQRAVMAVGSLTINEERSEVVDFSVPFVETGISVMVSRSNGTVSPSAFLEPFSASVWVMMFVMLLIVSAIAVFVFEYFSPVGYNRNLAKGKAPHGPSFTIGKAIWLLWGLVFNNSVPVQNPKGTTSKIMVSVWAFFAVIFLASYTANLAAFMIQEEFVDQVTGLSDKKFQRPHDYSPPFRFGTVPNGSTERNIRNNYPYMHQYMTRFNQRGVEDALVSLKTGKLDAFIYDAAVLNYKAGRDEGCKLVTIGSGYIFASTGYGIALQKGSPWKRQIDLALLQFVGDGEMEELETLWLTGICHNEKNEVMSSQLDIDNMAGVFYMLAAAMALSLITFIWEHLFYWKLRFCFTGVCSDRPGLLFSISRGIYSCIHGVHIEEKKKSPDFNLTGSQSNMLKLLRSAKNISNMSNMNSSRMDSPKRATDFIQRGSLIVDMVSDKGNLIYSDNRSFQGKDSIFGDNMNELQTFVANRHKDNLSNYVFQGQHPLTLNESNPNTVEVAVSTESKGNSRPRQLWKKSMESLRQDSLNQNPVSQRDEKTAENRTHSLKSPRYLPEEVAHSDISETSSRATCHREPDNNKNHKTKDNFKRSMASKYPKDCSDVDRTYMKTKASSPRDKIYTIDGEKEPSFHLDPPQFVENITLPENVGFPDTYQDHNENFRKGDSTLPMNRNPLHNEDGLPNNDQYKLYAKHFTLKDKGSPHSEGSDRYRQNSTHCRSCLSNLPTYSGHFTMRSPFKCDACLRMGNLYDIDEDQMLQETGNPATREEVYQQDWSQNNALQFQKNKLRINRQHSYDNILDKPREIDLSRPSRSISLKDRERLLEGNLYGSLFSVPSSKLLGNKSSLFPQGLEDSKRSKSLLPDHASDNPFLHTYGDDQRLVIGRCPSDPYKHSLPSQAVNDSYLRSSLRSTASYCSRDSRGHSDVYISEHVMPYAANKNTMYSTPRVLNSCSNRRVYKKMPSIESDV
# UniProt P21917, whole entry: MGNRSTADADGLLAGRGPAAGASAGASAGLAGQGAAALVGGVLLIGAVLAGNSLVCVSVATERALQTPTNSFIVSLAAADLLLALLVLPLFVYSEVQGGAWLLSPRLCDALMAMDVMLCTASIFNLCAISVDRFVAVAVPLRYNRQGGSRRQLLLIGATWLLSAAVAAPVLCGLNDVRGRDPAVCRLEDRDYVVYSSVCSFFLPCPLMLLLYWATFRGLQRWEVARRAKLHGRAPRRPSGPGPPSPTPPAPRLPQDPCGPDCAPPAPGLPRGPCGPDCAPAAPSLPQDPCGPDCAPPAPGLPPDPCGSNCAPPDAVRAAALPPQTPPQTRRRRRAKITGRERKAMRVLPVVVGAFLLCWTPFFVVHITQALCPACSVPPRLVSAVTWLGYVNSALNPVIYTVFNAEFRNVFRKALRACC
# Numbers after ± are the reported error.
Compound,target or system,assay,system,conditions,scale,measurement,result
CC(C)Cc1nnc2c(C(=O)NC3c4ccccc4-c4ccccc43)cccn12,Escherichia coli,broth microdilution,MB5746 rpoZ Δ24-91 frameshift,,reference: mutant over wild type,MIC ratio,> 32
C[C@H](Cc1ccc(O)c(O)c1)[C@@H](C)Cc1ccc(O)c(O)c1,,,human skin,"3% solution, 8 h, skin UV-treated 30 min",,amount in dermis,7.67 ± 1.28 µg
O=c1ccc2nc3ccc(OCC4(CO)COC4)cc3oc-2c1,Mycobacterium tuberculosis,,mc2 6206 bedaquiline-resistant MmpL5 regulator mutant,7 days,,MIC90,> 256 µM
CCC(C)C1NC(=O)/C(=C(/C)O)C1=O (centres unmarked),Arabidopsis thaliana,apo-pHusion imaging,elongating root cells,10 µM,,apoplastic pH,~7
CCCCCCC1c2ccc(O)cc2Oc2cc(O)ccc21,Escherichia coli,,MC4100,with: NAB7061 4 µg/mL,,MIC,1.2 µg/mL
Cc1cc(C(=O)O)ccc1-c1c2ccc(=O)cc-2oc2cc(OCc3ccc([N+](=O)[O-])o3)ccc12,Mycobacterium tuberculosis,,mc2 6206 PA-824-resistant ddn mutant,7 days,,MIC90,44 µM
Cc1ccc(S(=O)(=O)N(C)CC(=O)N(Cc2ccc(C3CCCCC3)cc2)c2ccc(C(=O)O)c(O)c2)cc1,"NIH3T3/v-Src, PANC-1, MDA-MB-231","immunoblotting, item: phospho-Src Tyr416",,"concentration not given, 24 h",,phosphorylation level,no effect
O=c1ccc2nc3ccc(OC4CCCC4)cc3oc-2c1,Mycobacterium tuberculosis,,mc2 6206 clofazimine-resistant fbiC mutant,7 days,,MIC90,9.9 µM
COc1ccc(OC[C@H]2c3cccn3CC(=O)N2Cc2cccc(F)c2)cc1,"Glutamate receptor ionotropic, NMDA 2A, with GluN1 (Grin2a, Rattus norvegicus, UniProt Q00959)","ion current, whole-cell patch clamp","HEK293T cells, transfected","10 µM, with: glutamate for 10 ms",reference: baseline,charge transfer,1.9 ± 0.7 fold
CCCN1CCN(c2ccc3c(c2)C2CC3CCN2C(=O)OCc2ccccc2)CC1 (centres unmarked),"DRD4 (Homo sapiens, UniProt P21917)","binding, radioligand binding",,,,Ki,> 10000 nM
c1ccc(Nc2cccc3ccccc23)cc1,Manis javanica OBP3 I101A,"binding, fluorescence binding",,with: 1-NPN probe,,Kd,830 ± 270 nM
CCN(CC)C(=O)Oc1ccc(C(=O)Nc2cccc3cc[nH]c23)cc1,rat NMDA receptor GluN2C/GluN2D vs GluN2A/GluN2B,"ion current, two-electrode voltage clamp",Xenopus oocytes,,reference: GluN2A/GluN2B over GluN2C/GluN2D potency,selectivity ratio,> 800 fold
CC(=O)OCOc1ccc2nc3ccc(=O)cc-3oc2c1,Mycobacterium tuberculosis,,mc2 6206 bedaquiline-resistant MmpL5 regulator mutant,7 days,,MIC90,21 µM
CCN1CCN(Cc2ccc(NC(=O)c3ccc(C)c(/C=C/c4cnc5[nH]ccc5c4OC)c3)cc2C(F)(F)F)CC1,FGFR1OP-FGFR1 fusion,"kinase-CDC37 interaction, cell-based kinome screen",,5 µM,reference: vehicle,log2 fold change,-1.38
CC#C/C(=N\OC[C@H]1COCCN1)c1ccc2ncnc(Nc3ccc(OCc4cccc(F)c4)c(Cl)c3)c2c1,NCI-N87,"cell growth, WST-8",,72 h,,IC50,8.3 ± 2.6 nM
CSc1nc(Cl)cc(Sc2nnc(-c3cc(C(F)(F)F)cc(C(F)(F)F)c3)[nH]2)n1,Klebsiella spp.,,,with: polymyxin B nonapeptide 25 µg/mL,,MIC,23.5 µg/mL
CC[C@H](C)[C@@H]1NC(=O)[C@H](CCC(=O)O)NC(=O)[C@@H]2CCCN2C(=O)[C@H](Cc2c[nH]cn2)NC(=O)[C@H](CC(=O)O)NC(=O)[C@H](Cc2ccc(O)cc2)NC(=O)[C@H](CC(N)=O)NC(=O)[C@@H]2CSSC[C@@H]3NC(=O)CNC(=O)CNC(=O)CNC(=O)[C@H](C)NC(=O)[C@H](C)NC(=O)CNC(=O)CNC(=O)[C@H](CSSC[C@H](NC3=O)C(=O)N[C@@H](CO)C(=O)N[C@@H](CC(=O)O)C(=O)N3CCC[C@H]3C(=O)N[C@@H](CCCNC(=N)N)C(=O)N2)NC1=O,Cav2.1 human,Ba2+ current,,200 nM,,inhibition,0%

# Repeated from above:
Compound,target or system,assay,system,conditions,scale,measurement,result
CC[C@H](C)[C@@H]1NC(=O)[C@H](CCC(=O)O)NC(=O)[C@@H]2CCCN2C(=O)[C@H](Cc2c[nH]cn2)NC(=O)[C@H](CC(=O)O)NC(=O)[C@H](Cc2ccc(O)cc2)NC(=O)[C@H](CC(N)=O)NC(=O)[C@@H]2CSSC[C@@H]3NC(=O)CNC(=O)CNC(=O)CNC(=O)[C@H](C)NC(=O)[C@H](C)NC(=O)CNC(=O)CNC(=O)[C@H](CSSC[C@H](NC3=O)C(=O)N[C@@H](CO)C(=O)N[C@@H](CC(=O)O)C(=O)N3CCC[C@H]3C(=O)N[C@@H](CCCNC(=N)N)C(=O)N2)NC1=O,Cav2.1 human,Ba2+ current,,200 nM,,inhibition,0%
CC(C)Cc1nnc2c(C(=O)NC3c4ccccc4-c4ccccc43)cccn12,Escherichia coli,broth microdilution,MB5746 rpoZ Δ24-91 frameshift,,reference: mutant over wild type,MIC ratio,> 32
